Assay results from different studies.
Parts stem from different laboratories: compare values within a part only. Changes are numbered by the printed parent chain.

Series 1
Target: Prothrombin, mature alpha-thrombin (F2, Homo sapiens, UniProt P00734)
Technique: aptamer microarray, sandwich
Molecule type: DNA with 2'F-ANA
Matrix: in vitro
Tested at: 200 nM
Setting: whole 15-mer aptamer, many near background
Together with: Cy3 exosite-II aptamer, 400 nM
Direction: higher = stronger binding
Strand: GGTTGGTGTGGTTGG
Modification | mean fluorescence intensity
2'F-ANA at 1 2 4 9 15 | 127 a.u.
2'F-ANA at 3 5 8 10 11 12 13 | 58.8 a.u.
2'F-ANA at 2 3 6 8 10 13 14 15 | 235 a.u.
2'F-ANA at 1 2 3 5 7 8 9 13 14 | 47.4 a.u.
2'F-ANA at 1 3 4 6 8 10 15 | 62.3 a.u.
2'F-ANA at 1 4 5 7 8 11 12 13 15 | 81.6 a.u.
2'F-ANA at 2 4 6 9 12 14 | 104 a.u.
2'F-ANA at 3 4 6 7 8 9 11 12 15 | 775 a.u.

Series 2
Target: Ras GTPase-activating protein-binding protein 1, full length (G3BP1, Homo sapiens, UniProt Q13283)
Chain of UniProt Q13283 (whole entry, looked up): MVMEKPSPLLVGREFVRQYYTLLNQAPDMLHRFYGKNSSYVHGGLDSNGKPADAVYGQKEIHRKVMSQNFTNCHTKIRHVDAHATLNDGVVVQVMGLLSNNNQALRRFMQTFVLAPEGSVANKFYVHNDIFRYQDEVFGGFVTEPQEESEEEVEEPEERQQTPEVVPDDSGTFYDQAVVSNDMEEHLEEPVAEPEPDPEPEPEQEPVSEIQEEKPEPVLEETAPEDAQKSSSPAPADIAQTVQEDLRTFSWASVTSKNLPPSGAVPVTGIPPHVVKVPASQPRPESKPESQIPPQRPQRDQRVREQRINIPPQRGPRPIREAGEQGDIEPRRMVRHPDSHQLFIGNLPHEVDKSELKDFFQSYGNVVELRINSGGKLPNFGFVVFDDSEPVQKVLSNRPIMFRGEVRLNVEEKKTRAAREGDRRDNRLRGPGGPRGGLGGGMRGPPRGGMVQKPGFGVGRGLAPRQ
Technique: RNA Bind-n-Seq
Molecule type: RNA
Matrix: in vitro
Tested at: 200 nM
Setting: whole 134-nt RNA, ends assumed
Together with: 150 mM LiCl
Reference: input library
Direction: higher = stronger binding
All molecules: 7-deaza-guanosine replaces G
Shared flanks, not repeated: GGGAGUUCUACAGUCCGACGAUC … UGGAAUUCUCGGGUGUCAAGG
Strand | log2 enrichment
AGUCCUGUGCUACACAUCGUAUGUACCGAAUCGGGCCCCGGCCCCGGGGCCCCGGGGAAAGUAUUAUGUUACGCCGUUCGGAUCUGCACU | -2.48
CUCAAGUCCUGUGCUACACAUCGUAUGUACCGAAUCGGAAAGGAAAGGUUUGGAAAGUAUUAUGUUACGCCGUUCGGAUCUGCACUUCCA | -0.297
CCUGUGCUACACAUCGUAUGUACCGAAUCGGGGUUUUUUUGGGGUGGGGAAAAAAAGGGGAAAGUAUUAUGUUACGCCGUUCGGAUCUGC | 0.18
GCAGGAAGUAAAAACAAAUGGAAAUACUUCGGAUAGUGGCAGGGGUGGGGGUUGCUAAGGAAAGGGUGGGAUGGGAGUGGGUAAAGAGUU | 0.459
GUCCUGUGCUACACAUCGUAUGUACCGAAUCGGAAAAAAGGAAAAAAGGAAAAAAGGGAAAGUAUUAUGUUACGCCGUUCGGAUCUGCAC | -0.79
CCUGUGCUACACAUCGUAUGUACCGAAUCGGGGUUUUUUUGGGGAAAAAAAGGGGAGGGGAAAGUAUUAUGUUACGCCGUUCGGAUCUGC | -0.354
UGGGAGGUGGAUUUUUUUUAUUUUUUUAGCUCAUUUCCAGGGGUGGGAAUUUUUUUUUAAUAUGUGUCAUGAAUAAAGUUGUUUUUGAAA | 0.23
UGGGAGGUGGAUUUUGUUUAUUUUUUUAGGUCAUUUCCAGGGGUGGGAAUUUUUUUUUAAUAUGUGUCAUGAAUAAAGUUGUUUUUGAAA | 0.0337

Series 3
Target: RNA binding protein fox-1 homolog 2, RRM domain, GST-SBP tag (RBFOX2, Homo sapiens, UniProt O43251-10, residues 100-194)
Technique: RNA Bind-n-Seq
Molecule type: RNA
Matrix: in vitro
Tested at: 365 nM
Setting: natural RNA segment, single round, ends assumed
Reference: no-protein control
Direction: higher = stronger binding
Shared flanks, not repeated: GGGAGUUCUACAGUCCGACGAUC … UGGAAUUCUCGGGUGCCAA
Strand | RBNS enrichment (R)
UUUAGUGACUAGUGUGUAGUGAGUCACGAUCAAGGCAUCCUUCAGCUUAGCAUUUUCAGUACUCACUGCUGAUCCUUGGUAGAAGUGCAGACUAGAAUAGAGCUAAAAAU | 0.608
CCUGCAGUUCAGGUGAUACAUUUACCAGUGUUCUUGUUUGUGUGGUGCCAGGAAAUUGAUUUUGGAAAAAGUGAAAUAACAUUAAAGGUGAAUGUGAGGCUUCUACUUUU | 1.05
GGUGCAUGCUGCUAUGUGAAUCUUAAAACUCCCUGCUGGAGGGAGGAGGCUGCUACAUUCCUCUCGUUCUGUCUCACACACUCUUCCUCCGAGUUUGUGUGUCUAGAACU | 7.24
CUCAAGCAUUUUCACUUUGUUUCUUACAUGUGUACUUUUUUGUUUACUUGUGAAAAUGGCCAUCUUUAAGCAUAUUUAUUUUCUGCCACUUUAUUUAAAGGCAAGCAAUA | 1.04
AGUUUUAAAACUCUUGCCAGUUACCACUUUAUCCAAUUUGCUAUCAUUUUCGUAUUAUCAGCUAUCGCCCUGUAAAAUAUUCAAAACUAGCUAUUUCUAAAGUAAACAUU | 0.485
AGUGCCCAACCAGGGACCACUGUCAUCAUAGUGGCUCUCAAUGUGCAUGUCACACCCCCCCUCAGUAGACUUGAGUAUUUUGAUGACCAAAGAGGAUGAUUUUCCUCAGA | 1.27
GUCCACUUUGGUUUUUCUUAUCUCUGUAUGUAAGAAAUUCUGUUUGUUGUUUACUAUGGAAUUAGUAUUACAUUUUGAGGUAAACAAAGAAUUUGUAUUGCUUGAUAAAC | 0.709
CAUGUACCCUGCCGACUGACUGAGGCACACAACUUCCCUGGCUUAUCAGAAGAUUCAUUUACAGGGAGACAAGCUUGCUGCCCUAAUUCCCAGCUCUCCCCAGUGUCCAG | 0.438

Other studies, line by line
Starting sequence: PafA, mature enzyme, eGFP fusion (Elizabethkingia meningoseptica, UniProt Q9KJX5); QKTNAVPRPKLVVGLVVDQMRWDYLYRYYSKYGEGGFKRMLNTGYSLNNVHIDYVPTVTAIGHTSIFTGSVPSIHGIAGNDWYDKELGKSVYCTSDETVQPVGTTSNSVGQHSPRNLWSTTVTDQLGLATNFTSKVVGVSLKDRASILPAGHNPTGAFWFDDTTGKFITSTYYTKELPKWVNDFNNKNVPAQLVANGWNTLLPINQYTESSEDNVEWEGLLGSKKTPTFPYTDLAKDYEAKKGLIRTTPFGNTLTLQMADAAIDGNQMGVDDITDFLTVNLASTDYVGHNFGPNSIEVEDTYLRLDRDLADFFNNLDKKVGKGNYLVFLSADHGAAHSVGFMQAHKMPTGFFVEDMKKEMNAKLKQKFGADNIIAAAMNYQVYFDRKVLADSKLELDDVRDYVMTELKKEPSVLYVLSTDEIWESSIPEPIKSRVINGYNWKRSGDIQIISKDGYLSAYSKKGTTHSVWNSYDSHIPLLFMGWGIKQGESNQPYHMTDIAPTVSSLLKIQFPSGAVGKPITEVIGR
Change | target | assay | test system | conditions | scale | measurement | value
I66G | vanadate, free oxyanion | microfluidic competitive inhibition | in vitro, cell-free expressed | not given, derived from inhibition constants, unchanged parent 676 nM | lower = stronger binding | oxyanion analog dissociation constant | 636 nM

A few entries again (series 2):
Strand | log2 enrichment
GUCCUGUGCUACACAUCGUAUGUACCGAAUCGGAAAAAAGGAAAAAAGGAAAAAAGGGAAAGUAUUAUGUUACGCCGUUCGGAUCUGCAC | -0.79
CCUGUGCUACACAUCGUAUGUACCGAAUCGGGGUUUUUUUGGGGAAAAAAAGGGGAGGGGAAAGUAUUAUGUUACGCCGUUCGGAUCUGC | -0.354
UGGGAGGUGGAUUUUUUUUAUUUUUUUAGCUCAUUUCCAGGGGUGGGAAUUUUUUUUUAAUAUGUGUCAUGAAUAAAGUUGUUUUUGAAA | 0.23
UGGGAGGUGGAUUUUGUUUAUUUUUUUAGGUCAUUUCCAGGGGUGGGAAUUUUUUUUUAAUAUGUGUCAUGAAUAAAGUUGUUUUUGAAA | 0.0337
